Measured values from different studies.
Values joined by “and” are separate records of one study, mostly repeats; a detail may differ. Numbers after ± are the reported error.
UniProt Q92918, sequence (whole entry, looked up): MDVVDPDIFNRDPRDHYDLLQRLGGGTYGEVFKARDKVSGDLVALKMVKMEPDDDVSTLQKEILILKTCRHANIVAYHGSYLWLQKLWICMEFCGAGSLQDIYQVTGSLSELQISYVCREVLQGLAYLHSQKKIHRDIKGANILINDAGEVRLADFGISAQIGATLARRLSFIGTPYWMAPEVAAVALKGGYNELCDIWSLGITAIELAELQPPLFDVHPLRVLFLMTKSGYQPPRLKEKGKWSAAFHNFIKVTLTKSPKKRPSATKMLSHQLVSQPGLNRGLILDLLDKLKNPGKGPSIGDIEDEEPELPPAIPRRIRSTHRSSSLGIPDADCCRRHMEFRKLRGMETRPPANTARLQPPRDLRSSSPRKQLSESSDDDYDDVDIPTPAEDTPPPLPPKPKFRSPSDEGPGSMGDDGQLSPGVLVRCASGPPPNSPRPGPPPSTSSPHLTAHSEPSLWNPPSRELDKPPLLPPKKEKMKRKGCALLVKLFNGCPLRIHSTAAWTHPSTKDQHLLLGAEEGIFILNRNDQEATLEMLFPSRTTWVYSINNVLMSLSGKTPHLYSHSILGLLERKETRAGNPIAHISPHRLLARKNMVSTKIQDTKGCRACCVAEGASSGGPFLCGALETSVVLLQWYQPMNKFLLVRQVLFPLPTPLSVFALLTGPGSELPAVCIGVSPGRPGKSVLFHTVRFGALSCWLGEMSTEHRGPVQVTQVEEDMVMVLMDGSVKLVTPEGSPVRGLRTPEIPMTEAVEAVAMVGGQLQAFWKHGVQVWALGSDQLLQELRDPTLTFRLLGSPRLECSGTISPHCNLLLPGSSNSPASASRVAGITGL

Structure (SMILES) | tested on | assay | system | setting | how to read | measurement | result
CCCC[C@H]1C(=O)N(C)[C@@H](CCCC)C(=O)N[C@@H](CCCNC(=O)CN2CCN(CC(=O)O)CCN(CC(=O)O)CCN(CC(=O)O)CC2)C(=O)N[C@H](C(=O)NCC(N)=O)CSCC(=O)N[C@@H](Cc2ccc(O)cc2)C(=O)N(C)[C@@H](C)C(=O)N[C@@H](CC(N)=O)C(=O)N2CCC[C@H]2C(=O)N[C@@H](Cc2c[nH]cn2)C(=O)N[C@@H](CC(C)C)C(=O)N(C)CC(=O)N[C@@H](Cc2c[nH]c3ccccc23)C(=O)N[C@@H](CO)C(=O)N[C@@H](Cc2c[nH]c3ccccc23)C(=O)N1C [gallium-68 labelled] |  |  | NOD/SCID mice with CHO-hPD-L1 xenograft, pancreas | 30 min post injection |  | tissue uptake | 1.48 ± 0.08 %ID/g
Cc1cc(C(=O)Nc2nc3cccc(C)c3n2[C@H]2CCCCN(C(=O)/C=C/CN(C)C)C2)ccn1 | Trypanosoma brucei |  | STIB795, mouse acute HAT model | oral, 25 mg/kg once daily for 4 days, day 21 | relative to: mice | survival | 33.3%
CC(C)(C)C(=O)OCOP(=O)(OCOC(=O)C(C)(C)C)C1CCCN(O)C1=O (stereo not shown) | OVCAR-3 |  |  |  |  | log LC50 | > -4 log M
CC[C@H](C)[C@H](NC(=O)[C@H](CCC(N)=O)NC(=O)[C@H](Cc1c[nH]cn1)NC(=O)[C@H](C)NC(=O)[C@H](CC(C)C)NC(=O)[C@H](CCCCN)NC(=O)[C@H](CCC(N)=O)NC(=O)[C@@H](NC(=O)[C@@H](NC(=O)[C@@H]1CSSC[C@H](NC(=O)CNC(=O)[C@H](Cc2ccccc2)NC(=O)[C@H](CO)NC(=O)[C@H](CCCNC(=N)N)NC(=O)[C@H](CC(C)C)NC(=O)CNC(=O)[C@H](CCC(N)=O)NC(=O)[C@H](Cc2ccccc2)NC(=O)[C@H](CC(N)=O)NC(=O)[C@H](CC(N)=O)NC(=O)[C@H](CCSC)NC(=O)[C@H](CO)NC(=O)[C@H](CCC(N)=O)NC(=O)[C@H](CCCNC(=N)N)NC(=O)[C@@H](N)Cc2ccc(O)cc2)C(=O)N[C@@H](CCCNC(=N)N)C(=O)N[C@@H](Cc2ccccc2)C(=O)NCC(=O)N[C@@H]([C@@H](C)O)C(=O)N1)[C@@H](C)O)C(C)C)C(=O)N[C@@H](Cc1ccc(O)cc1)C(=O)N[C@@H](CCC(N)=O)C(=O)N[C@@H](Cc1ccccc1)C(=O)N[C@H](C(=O)N[C@@H](CC(=O)O)C(=O)N[C@@H](CCCCN)C(=O)N[C@@H](CC(=O)O)C(=O)N[C@@H](CCCCN)C(=O)N[C@@H](CC(=O)O)C(=O)N[C@@H](CC(N)=O)C(=O)N[C@H](C(=O)N[C@@H](C)C(=O)N1CCC[C@H]1C(=O)N[C@@H](CCCNC(=N)N)C(=O)N[C@@H](CO)C(=O)N[C@@H](CCCCN)C(=O)N[C@H](C(=O)N[C@@H](CO)C(=O)N1CCC[C@H]1C(=O)N[C@@H](CCC(N)=O)C(=O)NCC(=O)N[C@@H](Cc1ccc(O)cc1)C(=O)NCC(=O)O)[C@@H](C)CC)C(C)C)[C@@H](C)O |  |  | human EDTA plasma | 3 h, ambient temperature, storage stability | relative to: untreated samples | recovery | 89.2%
N=C(N)NCCC[C@@H](NC(=O)[C@H](N)Cc1c[nH]c2ccccc12)C(=O)N[C@H](CCCCN)C(=O)N[C@H](Cc1c[nH]c2ccccc12)C(=O)N[C@H](CCCNC(=N)N)C(=O)N[C@H](CCCCN)C(=O)N[C@H](Cc1c[nH]c2ccccc12)C(=O)N[C@H](CCCNC(=N)N)C(=O)N[C@H](CCCCN)C(=O)N[C@H](Cc1c[nH]c2ccccc12)C(=O)N[C@H](CCCNC(=N)N)C(=O)N[C@H](CCCCN)C(N)=O |  |  | mouse, heart | intravenous, 30 mg/kg single dose, 7 days |  | organ index | 0.605
CN(C)[C@H]1C[C@@]23CC[C@@]4(O2)C(=CC[C@]2(C)[C@@H](c5ccc6ccncc6c5)CC[C@H]24)C=C3[C@@H](O)[C@@H]1O | Mitogen-activated protein kinase kinase kinase kinase 1 (MAP4K1, Homo sapiens, UniProt Q92918) | ATP probe labelling, inhibitor, KiNativ profiling |  | 1 µM |  | inhibition | -19.8%
CSCC[C@H](NC(=O)CNC(=O)[C@H](CCCCN)NC(=O)[C@H](CC(C)C)NC(=O)[C@@H]1CCCN1C(=O)[C@H](CO)NC(=O)[C@H](Cc1c[nH]cn1)NC(=O)[C@H](Cc1c[nH]c2ccccc12)NC(=O)[C@H](CCCNC(=N)N)NC(=O)[C@H](CC(C)C)NC(=O)[C@H](CCCNC(=N)N)NC(=O)[C@H](Cc1c[nH]c2ccccc12)NC(=O)[C@H](CS)NC(=O)CCCCCNC(=O)CN1CCN(CC(=O)O)CCN(CC(=O)O)CCN(CC(=O)O)CC1)C(=O)O [copper-64 labelled] |  | ex vivo biodistribution | BALB/c nude mice, brain | intravenous, dose not given, 1 h, Huh-7 tumour-bearing |  | tissue uptake | 0.15 %ID/g
CC(C)[C@@H]1NC(=O)CNC(=O)[C@H](CC(N)=O)NC(=O)[C@H](CCCNC(=N)N)NC(=O)[C@H](Cc2ccc(O)cc2)NC(=O)[C@H](C(C)C)NC(=O)[C@@H](NC(=O)[C@@H](NC(=O)[C@H](CC(N)=O)NC(=O)[C@H](Cc2c[nH]c3ccccc23)NC(=O)[C@H](C)NC(=O)[C@H](Cc2ccccc2)NC(=O)CNC(=O)[C@H](CCCCN)NC(=O)[C@H](Cc2ccccc2)NC(=O)[C@H](Cc2ccccc2)NC(=O)[C@H](CCCCN)NC(=O)OCC2c3ccccc3-c3ccccc32)C(C)C)CSSC[C@@H](C(=O)N[C@@H](Cc2c[nH]cn2)C(=O)N[C@@H](CCCNC(=N)N)C(=O)N[C@@H](CCCNC(=N)N)C(=O)N[C@@H](C)C(=O)N[C@@H](CC(N)=O)C(N)=O)NC(=O)[C@H](C(C)C)NC(=O)[C@H](CCCNC(=N)N)NC1=O |  | HPLC | mouse liver homogenate 50 mg/mL | 6.00 h |  | peptide remaining | 35.1% and 38.1% and 41.1%
COc1ccccc1-c1n[nH]c2nc(NC3CCN(C(=O)Cc4ccc(F)cc4F)CC3)ncc12 |  | bead binding, competition bead pull-down, measured: LINJ.10.0200 | Leishmania donovani extract | 10 µM | relative to: vehicle | relative abundance | 0.77
O=C1NC2(CC2)COc2ncc(F)cc2[C@H]2COCCN2c2ccn3ncc1c3n2 |  |  | Sprague-Dawley rat, female, uterus | oral, 10 mg/kg/day, 4 weeks, end of treatment |  | organ-to-brain weight ratio | 26.8 ± 11.4%
N#[11C]c1ccc(-c2csc(NN=C3CCCC3)n2)cc1 |  |  | C57BL/6 mice, male, thymus | intravenous, 3 MBq, 5 min |  | radioactivity uptake | 4.17 ± 1.06 %ID/g
C=Cc1c(C)c2cc3nc(c(CC(=O)O)c4[nH]c(cc5nc(cc1[nH]2)C(C)=C5CC)c(C)c4C(=O)O)[C@@H](CCC(=O)NCCCC[C@H](NC(C)=O)C(=O)N[C@@H](Cc1ccccc1)C(=O)N[C@@H](Cc1ccccc1)C(=O)N[C@H](C(=O)N[C@@H](CC(C)C)C(=O)N[C@@H](CCCCN)C(=O)N[C@@H](CO)C(=O)NCC(=O)N[C@@H](CCC(N)=O)C(=O)N[C@@H](Cc1ccc(O)cc1)C(=O)N[C@@H](C)C(=O)N[C@@H](CO)C(=O)N[C@@H](Cc1ccc(O)cc1)C(=O)N[C@@H](Cc1c[nH]cn1)C(=O)N[C@@H](CS)C(=O)N[C@@H](Cc1c[nH]c2ccccc12)C(=O)N[C@@H](CS)C(=O)N[C@@H](Cc1c[nH]c2ccccc12)C(=O)N[C@@H](CCCNC(=N)N)C(=O)N[C@@H](CC(=O)O)C(=O)N1CCC[C@H]1C(=O)NCC(=O)N[C@@H](CCCNC(=N)N)C(=O)N[C@@H](CO)C(=O)NCC(=O)NCC(=O)N[C@@H](CO)C(=O)N[C@@H](CCCCN)C(N)=O)C(C)C)[C@@H]3C |  |  | mouse, blood | 3 h |  | blood concentration | 117 µg/mL and 131 µg/mL
C#Cc1c(F)ccc2cc(O)cc(-c3ncc4c(N5CC6CCC(C5)N6C(=O)OC(C)OC(=O)c5cccc6ccccc56)nc(OC[C@@]56CCCN5C[C@H](F)C6)nc4c3F)c12 (stereo partly shown) |  | chemical stability | simulated intestinal fluid | 1 µM, 30 min |  | compound remaining | 99.5%
